Measurements from different studies.
Lines come from different studies, so protocols differ. ± marks the error that the study gave.
Sequence of UniProt P02769 (whole entry, looked up): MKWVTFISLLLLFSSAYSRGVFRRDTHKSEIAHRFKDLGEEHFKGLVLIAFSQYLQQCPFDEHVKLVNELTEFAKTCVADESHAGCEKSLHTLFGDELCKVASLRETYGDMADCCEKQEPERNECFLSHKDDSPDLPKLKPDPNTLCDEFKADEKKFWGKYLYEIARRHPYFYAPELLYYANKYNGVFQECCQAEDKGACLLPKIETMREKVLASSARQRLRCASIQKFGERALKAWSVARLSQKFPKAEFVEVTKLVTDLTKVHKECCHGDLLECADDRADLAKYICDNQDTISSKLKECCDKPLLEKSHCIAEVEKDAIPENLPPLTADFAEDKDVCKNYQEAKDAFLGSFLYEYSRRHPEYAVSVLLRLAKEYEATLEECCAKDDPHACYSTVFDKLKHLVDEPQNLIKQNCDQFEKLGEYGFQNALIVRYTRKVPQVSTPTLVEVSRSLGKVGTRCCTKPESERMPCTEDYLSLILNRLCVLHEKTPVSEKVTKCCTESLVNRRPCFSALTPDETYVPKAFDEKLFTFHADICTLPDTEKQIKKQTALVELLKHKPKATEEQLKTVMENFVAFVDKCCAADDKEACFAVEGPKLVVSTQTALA
Sequence of UniProt P0ADV1 (whole entry, looked up): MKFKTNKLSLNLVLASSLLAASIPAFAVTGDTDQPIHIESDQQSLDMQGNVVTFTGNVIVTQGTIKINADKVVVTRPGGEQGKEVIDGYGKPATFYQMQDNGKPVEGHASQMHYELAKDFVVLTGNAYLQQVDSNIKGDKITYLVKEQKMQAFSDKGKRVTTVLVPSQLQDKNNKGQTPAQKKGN
Sequence of UniProt Q04609 (whole entry, looked up): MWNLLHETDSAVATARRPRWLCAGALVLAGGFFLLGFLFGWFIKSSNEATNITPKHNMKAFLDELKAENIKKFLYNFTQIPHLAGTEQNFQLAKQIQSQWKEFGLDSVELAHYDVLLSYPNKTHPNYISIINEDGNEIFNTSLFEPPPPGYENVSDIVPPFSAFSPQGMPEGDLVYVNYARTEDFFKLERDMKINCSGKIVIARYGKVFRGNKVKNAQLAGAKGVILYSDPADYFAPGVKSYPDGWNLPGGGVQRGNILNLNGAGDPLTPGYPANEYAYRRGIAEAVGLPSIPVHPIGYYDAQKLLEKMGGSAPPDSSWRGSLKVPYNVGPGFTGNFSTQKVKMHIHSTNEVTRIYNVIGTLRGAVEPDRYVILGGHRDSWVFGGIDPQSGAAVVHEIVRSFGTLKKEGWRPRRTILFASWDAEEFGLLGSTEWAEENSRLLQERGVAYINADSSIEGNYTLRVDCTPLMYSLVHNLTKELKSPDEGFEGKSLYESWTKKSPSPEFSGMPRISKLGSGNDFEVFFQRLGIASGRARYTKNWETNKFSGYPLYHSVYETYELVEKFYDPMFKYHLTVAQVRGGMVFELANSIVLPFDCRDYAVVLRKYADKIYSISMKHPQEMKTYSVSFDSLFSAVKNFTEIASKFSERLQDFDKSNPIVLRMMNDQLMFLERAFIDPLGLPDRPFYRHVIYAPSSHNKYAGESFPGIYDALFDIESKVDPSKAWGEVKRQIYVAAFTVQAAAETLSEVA
Sequence of UniProt P22607 (whole entry, looked up): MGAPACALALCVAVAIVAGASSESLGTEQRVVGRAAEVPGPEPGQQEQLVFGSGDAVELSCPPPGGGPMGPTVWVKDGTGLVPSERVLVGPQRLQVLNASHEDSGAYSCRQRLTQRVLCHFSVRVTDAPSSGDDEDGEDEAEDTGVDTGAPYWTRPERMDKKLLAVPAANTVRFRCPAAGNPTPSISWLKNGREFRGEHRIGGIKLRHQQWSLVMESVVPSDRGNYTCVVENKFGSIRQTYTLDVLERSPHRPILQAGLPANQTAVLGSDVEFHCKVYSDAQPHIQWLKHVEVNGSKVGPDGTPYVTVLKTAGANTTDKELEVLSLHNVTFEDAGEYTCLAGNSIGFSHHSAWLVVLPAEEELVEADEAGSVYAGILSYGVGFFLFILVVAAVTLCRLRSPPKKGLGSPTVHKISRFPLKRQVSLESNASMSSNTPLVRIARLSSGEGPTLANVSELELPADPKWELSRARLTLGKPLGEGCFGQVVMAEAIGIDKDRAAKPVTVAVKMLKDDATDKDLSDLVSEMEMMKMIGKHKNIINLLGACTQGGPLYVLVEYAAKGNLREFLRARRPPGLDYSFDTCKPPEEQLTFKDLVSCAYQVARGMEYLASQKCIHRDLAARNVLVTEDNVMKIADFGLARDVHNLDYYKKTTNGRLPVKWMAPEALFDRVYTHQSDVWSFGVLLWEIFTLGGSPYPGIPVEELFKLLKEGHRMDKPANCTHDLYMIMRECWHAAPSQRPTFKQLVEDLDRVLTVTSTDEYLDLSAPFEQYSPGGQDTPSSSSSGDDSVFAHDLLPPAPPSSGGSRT
Sequence of UniProt Q15759 (whole entry, looked up): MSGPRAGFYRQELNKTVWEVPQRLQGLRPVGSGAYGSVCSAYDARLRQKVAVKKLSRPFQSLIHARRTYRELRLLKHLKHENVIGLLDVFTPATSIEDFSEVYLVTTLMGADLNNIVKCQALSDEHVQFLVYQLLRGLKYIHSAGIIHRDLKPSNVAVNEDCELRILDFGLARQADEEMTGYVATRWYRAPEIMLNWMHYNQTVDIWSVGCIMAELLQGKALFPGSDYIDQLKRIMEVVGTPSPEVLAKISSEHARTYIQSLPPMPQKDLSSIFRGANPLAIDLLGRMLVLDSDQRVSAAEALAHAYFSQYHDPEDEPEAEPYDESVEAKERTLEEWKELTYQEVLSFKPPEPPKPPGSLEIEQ
Sequence of UniProt O87605 (whole entry, unmodified, looked up): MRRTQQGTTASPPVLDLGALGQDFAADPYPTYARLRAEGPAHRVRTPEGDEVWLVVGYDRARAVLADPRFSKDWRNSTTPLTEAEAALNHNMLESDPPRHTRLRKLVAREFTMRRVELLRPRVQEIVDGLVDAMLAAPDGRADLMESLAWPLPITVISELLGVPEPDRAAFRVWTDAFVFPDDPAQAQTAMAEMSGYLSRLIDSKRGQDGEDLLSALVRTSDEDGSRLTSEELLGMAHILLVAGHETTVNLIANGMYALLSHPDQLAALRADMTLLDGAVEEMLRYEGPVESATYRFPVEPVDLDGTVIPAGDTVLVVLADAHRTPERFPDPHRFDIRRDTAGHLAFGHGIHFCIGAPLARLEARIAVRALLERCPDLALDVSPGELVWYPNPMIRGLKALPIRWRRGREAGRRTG
Sequence of UniProt P15328 (whole entry, looked up): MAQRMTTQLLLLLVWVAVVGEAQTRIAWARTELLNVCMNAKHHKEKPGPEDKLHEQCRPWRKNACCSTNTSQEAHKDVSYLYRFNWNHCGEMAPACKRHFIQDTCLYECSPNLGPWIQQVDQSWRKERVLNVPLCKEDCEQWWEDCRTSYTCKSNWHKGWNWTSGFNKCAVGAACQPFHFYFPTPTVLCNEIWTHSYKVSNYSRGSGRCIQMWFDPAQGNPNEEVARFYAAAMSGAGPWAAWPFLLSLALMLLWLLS

CC[C@H](C)[C@H](NC(=O)[C@H](Cc1ccc(O)cc1)NC(=O)[C@@H]1CCCN1C(=O)[C@H](CCCCN)NC(=O)[C@H](CCCCN)NC(=O)CCNC(=O)CCNC(=O)[C@H](CCC(=O)NCCC(=O)NCCC(=O)N[C@@H](Cc1ccc(OCC(=O)N[C@@H](Cc2ccccc2)C(=O)NCCCC[C@H](NC(=O)N[C@@H](CCC(=O)O)C(=O)O)C(=O)O)cc1)C(=O)O)NC(=O)CCNC(=O)CCNC(=O)CN1CCN(CC(=O)O)CCN(CC(=O)O)CCN(CC(=O)O)CC1)C(=O)N[C@@H](CC(C)C)C(=O)O [gallium-68 labelled]  Kd (Glutamate carboxypeptidase 2 (FOLH1, Homo sapiens, UniProt Q04609); saturation binding; PC3-PIP cells (NTS1+ and PSMA+); 2 h, 4 °C): 0.053 µM
CSCC[C@H](NC(=O)[C@H](CCC(N)=O)NC(=O)CNC(=O)[C@H](CCC(N)=O)NC(=O)[C@H](CO)NC(=O)[C@@H]1CCCN1C(=O)[C@H](CCSC)NC(=O)[C@@H](NC(=O)[C@H](CC(C)C)NC(=O)[C@H](CO)NC(=O)[C@H](CC(C)C)NC(=O)[C@@H](NC(=O)[C@@H](NC(=O)[C@H](CO)NC(=O)[C@@H](NC(=O)[C@H](CCCCN)NC(=O)[C@H](CO)NC(=O)[C@@H](NC(=O)[C@H](CO)NC(=O)[C@H](CCC(N)=O)NC(=O)[C@H](C)NC(=O)[C@H](CO)NC(=O)[C@H](CO)NC(=O)[C@H](C)NC(=O)[C@@H]1CCCN1C(=O)[C@H](C)NC(=O)[C@H](CO)NC(=O)[C@@H](NC(=O)[C@@H]1CCCN1C(=O)[C@H](Cc1ccc(O)cc1)NC(=O)[C@@H](NC(=O)[C@H](CCCNC(=N)N)NC(=O)CNC(=O)CNC(=O)[C@@H]1CCCN1C(=O)[C@H](C)NC(=O)[C@@H]1CCCN1C(=O)[C@@H](NC(=O)[C@@H]1CCCN1C(=O)[C@@H](NC(=O)[C@@H]1CCCN1C(=O)[C@H](CCC(N)=O)NC(=O)[C@H](CO)NC(=O)[C@H](CCSC)NC(=O)[C@@H](N)CCC(=O)O)[C@@H](C)O)[C@@H](C)O)C(C)C)C(C)C)[C@@H](C)O)[C@@H](C)O)C(C)C)[C@@H](C)O)C(C)C)C(=O)N[C@H](C(=O)O)C(C)C  Kd (Mitogen-activated protein kinase 11 (MAPK11, Homo sapiens, UniProt Q15759); binding, isothermal titration calorimetry; 25 °C): 2.2 µM
CC[C@H]1OC(=O)[C@H](C)[C@@H](OC(=O)CN(C)C)[C@@H](C)C[C@@H](C)C(=O)/C=C/[C@H]1C  Kd (pikC (Streptomyces venezuelae, UniProt O87605, D50N/H238A); substrate, spectroscopic equilibrium binding; D50N/H238A double mutant): 11 ± 0.56 µM
Nc1nc2ncc(CNc3ccc(C(=O)N[C@@H](CCC(=O)NCCOCCOCCNC(=O)CN4CCN5CCN(CC4)CC(=O)[O][Al]([F])[O]C(=O)C5)C(=O)O)cc3)nc2c(=O)[nH]1 [fluorine-18 labelled]  Kd (Folate receptor alpha (FOLR1, Homo sapiens, UniProt P15328); binding, radioligand saturation binding; KB and CAL-51 tumour xenograft homogenates): ~0.001 µM
O=C(O[C@@H]1Cc2c(O)cc(O)cc2O[C@@H]1c1cc(O)c(O)c(O)c1)c1cc(O)c(O)c(O)c1  Kd (Albumin (ALB, Bos taurus, UniProt P02769); binding, fluorescence quenching; pH 7.4, with: BSA 3 µM): 0.217 µM
CC[C@H](C)[C@H](NC(=O)[C@H](CCCNC(=N)N)NC(=O)[C@@H](NC(=O)[C@@H]1CSSC[C@H](NC(=O)[C@H](C)NC(=O)[C@@H](NC(=O)[C@@H](NC(=O)[C@@H]2CCCN2C(=O)[C@@H](NC(=O)[C@@H]2CCCN2C(=O)[C@H](CCCCN)NC(=O)[C@H](CO)NC(=O)CN)C(C)C)[C@@H](C)CC)[C@@H](C)CC)C(=O)N[C@@H](CC(N)=O)C(=O)N[C@@H](CCCNC(=N)N)C(=O)N[C@@H](CCCCN)C(=O)N[C@@H]([C@@H](C)O)C(=O)NCC(=O)N[C@@H](CCCCN)C(=O)N1)[C@@H](C)O)C(=O)O  Kd (lptA (Escherichia coli, UniProt P0ADV1); binding, BLI): 0.0005 µM
CC[C@H](C)[C@H](NC(=O)CN)C(=O)N[C@H](C(=O)N[C@@H](CC(N)=O)C(=O)N[C@H](C(=O)N[C@@H](CC(C)C)C(=O)N[C@@H](CCC(N)=O)C(=O)N[C@@H](CCCCN)C(=O)N[C@@H](Cc1ccc(O)cc1)C(=O)N[C@@H](Cc1ccc(O)cc1)C(=O)N[C@H]1CSSC[C@@H]2NC(=O)[C@H](CCCCN)NC(=O)[C@H](CCCNC(=N)N)NC(=O)CNC(=O)[C@H](CCCNC(=N)N)NC(=O)[C@H]([C@@H](C)O)NC(=O)[C@H](CO)NC(=O)[C@@H]3CSSC[C@H](NC(=O)[C@H](CCCNC(=N)N)NC(=O)CNC(=O)CNC(=O)[C@H](CCCNC(=N)N)NC(=O)[C@H](C(C)C)NC(=O)[C@H](CCCNC(=N)N)NC1=O)C(=O)N[C@@H](C)C(=O)N[C@@H](C(C)C)C(=O)N[C@@H](CC(C)C)C(=O)N[C@@H](CO)C(=O)N[C@@H](CSSC[C@@H](C(=O)N[C@@H](CCCNC(=N)N)C(=O)N[C@@H](CCCNC(=N)N)C(=O)N[C@@H](CCCCN)C(=O)N[C@@H](CCCCN)C(=O)O)NC2=O)C(=O)N[C@@H](CC(C)C)C(=O)N1CCC[C@H]1C(=O)N[C@@H](CCCCN)C(=O)N[C@@H](CCC(=O)O)C(=O)N[C@@H](CCC(=O)O)C(=O)N[C@@H](CCC(N)=O)C(=O)N[C@@H]([C@@H](C)CC)C(=O)NCC(=O)N[C@@H](CCCCN)C(=O)N3)[C@@H](C)O)[C@@H](C)CC  Kd (sapA (Haemophilus influenzae, UniProt Q4QL73); binding, SPR; pH 7.5, 25 °C, with: immobilised full-length defensin): 0.0105 µM
CSCC[C@H](NC(C)=O)C(=O)N[C@@H](CCC(N)=O)C(=O)N[C@H](C(=O)N[C@H]1CSCc2cccc(c2)CSC[C@@H](C(=O)NCC(=O)N[C@@H](Cc2ccc(O)cc2)C(=O)NCC(=O)N[C@@H](CO)C(=O)NCC(=O)N[C@@H](CO)C(=O)NCC(=O)N[C@@H](CO)C(=O)N[C@@H](CC(=O)O)C(=O)N[C@@H](Cc2ccc(O)cc2)C(=O)N[C@@H](CCCCN)C(=O)N[C@@H](CC(=O)O)C(=O)N[C@@H](CC(=O)O)C(=O)N[C@@H](CC(=O)O)C(=O)N[C@@H](CC(=O)O)C(=O)N[C@@H](CCCCN)C(N)=O)NC(=O)[C@H](CC(C)C)NC(=O)[C@H](C(C)C)NC(=O)[C@H](CC(C)C)NC(=O)[C@H](Cc2c[nH]cn2)NC(=O)[C@H](CCC(=O)O)NC(=O)[C@H](CCCCN)NC(=O)[C@H](Cc2ccccc2)NC(=O)[C@H]([C@@H](C)O)NC1=O)[C@@H](C)O  Kd (Fibroblast growth factor receptor 3 (FGFR3, Homo sapiens, UniProt P22607); binding, BLI): > 10 µM

A few entries again:
O=C(O[C@@H]1Cc2c(O)cc(O)cc2O[C@@H]1c1cc(O)c(O)c(O)c1)c1cc(O)c(O)c(O)c1  Kd (Albumin (ALB, Bos taurus, UniProt P02769); binding, fluorescence quenching; pH 7.4, with: BSA 3 µM): 0.217 µM
